Measurements collected from several papers.
Protocols differ between the studies behind these lines.

SMILES = NC(=O)c1ccccc1NC(=O)c1ccc(-c2ccccc2)cc1; system = human plasma; setting = 2 µM, 10 min, 37 °C; remaining compound = 114%
SMILES = N#Cc1ccc(Nc2nc(N)cc(Oc3c(F)cc(-c4ccc(C#N)cc4)cc3F)n2)cc1; system = monkey plasma; setting = 1 µM, 0.50 h, pH 7.4, 37 °C; remaining compound = 94.8%
SMILES = Cn1cncc1-c1c(F)cncc1NC(=O)c1c(N)nn2cc(F)cnc12; system = DMSO stock solution; setting = 100 µg/mL, 6 months, -80 °C; remaining compound = 99.6%
SMILES = CCOc1ccc2ccc(=O)oc2c1; system = human liver microsomes; setting = 1 µM, 30 min, pH 7.4; remaining compound = 20.9%
SMILES = CSc1nccc(C(=O)N[C@@H](CCC(=O)O)C(=O)N[C@@H](Cc2ccc3ccccc3c2)C(=O)N[C@@H](CC(C)C)C(=O)NC2CC2c2ccccc2)n1 (some centres unmarked); system = pooled human plasma; setting = 30 min, 37 °C; remaining compound = 106%
SMILES = Cc1cc(Oc2ncccc2CN2CCN(c3ncccc3C(F)(F)F)CC2)ccc1-c1c(C)c(=O)[nH]c(=O)n1C; assay = metabolic stability; system = rat liver S9 fraction; setting = 2 µM, 0.6667 h, pH 7.4; remaining compound = > 90%
SMILES = CC[N+]1(C)CCN(c2ccc(NC(=O)c3cccc(C)n3)cc2)CC1; system = pooled BALB/c mouse plasma; setting = 1 µM, 0.08333 h; remaining compound = 98.3%
SMILES = CSc1ncc(Br)c(C(=O)N[C@@H](CCC(=O)O)C(=O)N[C@@H](Cc2ccc3ccccc3c2)C(=O)N[C@@H](CC(C)C)C(=O)N[C@@H]2C[C@H]2c2ccccc2)n1; system = pooled human plasma; setting = 60 min, 37 °C; remaining compound = 98.1%
